Results pooled from the literature.
Numbered parts are unrelated; each lists some results of a single study.
Sequence of UniProt P29376 (whole entry, looked up): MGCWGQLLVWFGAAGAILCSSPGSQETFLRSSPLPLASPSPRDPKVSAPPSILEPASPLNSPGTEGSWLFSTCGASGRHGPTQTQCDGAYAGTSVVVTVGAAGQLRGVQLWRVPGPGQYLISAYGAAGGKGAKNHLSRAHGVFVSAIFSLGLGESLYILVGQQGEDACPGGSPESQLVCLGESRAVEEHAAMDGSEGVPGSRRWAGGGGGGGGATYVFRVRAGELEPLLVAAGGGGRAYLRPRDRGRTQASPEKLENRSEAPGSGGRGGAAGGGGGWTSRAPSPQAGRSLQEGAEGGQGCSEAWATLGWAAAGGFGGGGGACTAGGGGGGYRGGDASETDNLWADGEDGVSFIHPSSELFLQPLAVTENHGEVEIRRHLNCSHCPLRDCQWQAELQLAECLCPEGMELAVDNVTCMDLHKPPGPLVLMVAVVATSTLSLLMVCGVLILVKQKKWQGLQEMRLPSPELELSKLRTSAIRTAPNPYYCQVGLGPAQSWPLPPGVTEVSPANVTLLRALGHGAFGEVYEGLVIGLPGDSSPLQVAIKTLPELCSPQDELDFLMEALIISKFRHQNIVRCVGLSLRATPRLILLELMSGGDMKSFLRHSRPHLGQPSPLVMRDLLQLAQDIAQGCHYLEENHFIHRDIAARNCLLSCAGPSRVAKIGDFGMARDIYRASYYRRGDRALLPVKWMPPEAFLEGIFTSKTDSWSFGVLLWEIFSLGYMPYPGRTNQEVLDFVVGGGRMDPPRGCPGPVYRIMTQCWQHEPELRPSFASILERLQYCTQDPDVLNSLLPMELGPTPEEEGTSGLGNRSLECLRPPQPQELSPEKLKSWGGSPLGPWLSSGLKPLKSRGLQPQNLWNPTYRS

Block 1
Target: Max dimerization protein 1, bHLH-zipper, MAX partner unstated (MXD1, Homo sapiens, UniProt Q05195, residues 56-136)
Method: protein-binding microarray
Molecule type: double-stranded DNA, one strand shown
Medium: in vitro
Concentration: not given
Notes: k-mer, scored over probes, only values ≥0.25
Reading: higher = stronger binding
Quantity: E-score
Construct (chain): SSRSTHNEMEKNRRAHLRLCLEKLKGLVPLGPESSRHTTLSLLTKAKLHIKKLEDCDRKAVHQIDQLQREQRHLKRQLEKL
ACATGGCT: 0.277
ATGCGTGA: 0.333
AAGCGTGC: 0.372
GGCCACGA: 0.26
AAGGCACG: 0.259
CACGCGAC: 0.403
ACTCATGG: 0.306
CCATATGG: 0.387

Block 2
Target: Phosphate system positive regulatory protein PHO4, full length, GST-tagged (PHO4, Saccharomyces cerevisiae, UniProt P07270, residues 1-312)
Method: competition protein-binding microarray
Molecule type: double-stranded DNA, one strand shown
Medium: in vitro
Concentration: 2 µM
Notes: whole 60-bp probe, lowest competitor level
Together with: Cbf1 competitor, 0.05 µM
Reading: higher = stronger binding
Quantity: fluorescence intensity
Constant ends, left off below: … GTCTTGATTCGCTTGACGCTGCTG
Target sequence (chain): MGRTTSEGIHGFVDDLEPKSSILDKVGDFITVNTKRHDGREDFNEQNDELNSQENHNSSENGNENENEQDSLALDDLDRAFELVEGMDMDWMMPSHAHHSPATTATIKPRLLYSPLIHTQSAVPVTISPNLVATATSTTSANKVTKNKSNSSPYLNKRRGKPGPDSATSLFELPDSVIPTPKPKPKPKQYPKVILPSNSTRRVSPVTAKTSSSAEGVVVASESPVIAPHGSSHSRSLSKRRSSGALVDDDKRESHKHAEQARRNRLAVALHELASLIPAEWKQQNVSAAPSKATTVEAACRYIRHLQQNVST
TAGTTTTTCGCAAGCCATGCGTGTACTTTCGTTTTT: 7450 a.u.
ACTGGCAGCTCATTACTCGTGACGGAGCTTTAACAG: 6650 a.u.
AAATTACTAAGTTGGAGAGTGGGTGACGCCGTATGA: 4110 a.u.
CGGGGTTAAGTTTCGCACGTGTTTTGCTTGCAGCAG: 15400 a.u.
AAAGCGGTAATTTGCATCGTGGGTGCAGATATCTAT: 10900 a.u.
ATATTTCCACTTACCCATGTGTTTATAATCGCGGGA: 9010 a.u.
CTTCTGTAAATTTGGTTTGTGGGTGGACGCGCCCCG: 4310 a.u.
CGTCCTAGTGATTGTCACTGAACTTCCATGAGGAAG: 3810 a.u.

Block 3
Target: RING finger protein unkempt homolog, zinc fingers 1-6, GST-SBP tag (UNK, Homo sapiens, UniProt Q9C0B0, residues 30-357)
Method: RNA Bind-n-Seq
Molecule type: RNA
Medium: in vitro
Concentration: not given
Notes: RNA with constant flanks, ends assumed
Relative to: input RNA pool
Reading: higher = stronger binding
Quantity: bound/input enrichment
Constant ends, left off below: GGGAGUUCUACAGUCCGACGAUC … CAACAGAGGAUUGAGCAUCA
Residues (chain): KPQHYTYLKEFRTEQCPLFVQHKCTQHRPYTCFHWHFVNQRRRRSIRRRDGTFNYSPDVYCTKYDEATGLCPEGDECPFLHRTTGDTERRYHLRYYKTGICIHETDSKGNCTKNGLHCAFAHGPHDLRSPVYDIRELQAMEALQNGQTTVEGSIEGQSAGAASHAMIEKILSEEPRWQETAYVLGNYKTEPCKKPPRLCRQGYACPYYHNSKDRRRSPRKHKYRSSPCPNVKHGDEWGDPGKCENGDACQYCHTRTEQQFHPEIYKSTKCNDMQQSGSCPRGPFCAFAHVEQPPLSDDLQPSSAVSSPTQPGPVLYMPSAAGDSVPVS
UCUCCAUCUUGUUACAUUCCACUGCGGAGACUACAGGAUUUGGCCUCCAUGAUCAAUGCCGAGUAUUUAAAUGGGUCUGCUGAUGGAUCAGAAUCCUUUCAAGACCCUGAAAAAAGUGAU: 0.0871 ratio
GUCAACAGUUGUCUCAAUCCCAUUCUCUAUGCUUUCUUGGAUGAGAACUUCAAGGCCUGCUUCCGAAAGUUCUGCUGUGCUUCUGCCCUGCACCGGGAGAUGCAGGUUUCUGAUCGUGUG: 0.421 ratio
GCCUGGCUAGUGGAUCAUGUCUAUGCUAUCCGUGAGGCUGCCACCAGCAACCUUAAGAAAUCCGCCGAGAAGUUCGGGAAGGAGUGGGCCCAUGCCACUAUCAUCCCCAAGGUCUUAGCC: 0.0771 ratio
UUCAAUCCAUUGAAAGCAUCCGGGGAUGGAGAAUCACUGGAUGAAGAUUCUGAAUUCACAUCCGCCUCUGAUUUUGAAAUUGGACACUUUUUCCGUGAGCGGAUAGUCCCGCGGGCUGUG: 0.29 ratio
UGAAUAUGAUACUUCUUUAUUCACAGUAUCUGUGUCUCCUGCACCCUUUGGUGUUGCAAUUUCCGGUAUGUGAAAGUAGAUGUUAGCAGGGUUCUCUCCCUAUUUAAAAAUAAAUUUUAA: 6.12 ratio
ACUAUUGGAUUUAAUGUGGAGACGGUGACAUACAAAAAUCUCAAAUUCCAAGUUUGGGACUCCGGAGGACAGACAAGUAUCAGGCCAUACUGGAGAUGUUAUUAUUCAAACACAGAUGCA: 0.287 ratio
GAUCAGAAUGGAAUGACGCCUUUAAUGUGGGCAGCAUAUAGAACACAUAGUGUGGAUCCAACCCGAUUGCUUUUAACAUUCAAUGUUUCAGUUAACCUUGGUGACAAGUAUCACAAAAAC: 0.235 ratio
GAUAUAAAGACUAUAUUUUCUGAAUUUAUCACAAUCGAAAUGUUAUUUCACGGCAAAGCUUCCGAGGUCUACACUGCUGCCUACCAGAAUAUACAAAACAUUGAUGAAGAUGAAGAUUUA: 0.391 ratio

Block 4
Target: HLA class I histocompatibility antigen, A alpha chain, allele A*80:01 (Homo sapiens, UniProt P04439)
Observed: peptide-MHC binding
Molecule type: peptide
Reading: direction not given
Quantity: z-score of log IC50
FIVEHINAM: 0.38
FTFDLTALK: 0.38
AESICSYWL: 0.38
ASLIPDATY: 0.38
FTARIIIFS: 0.38
FGAQMGWPV: 0.38
DETFVHSGF: 0.38
AKIALAVYK: 0.38
ATPHSVWVF: 0.38
DEWECTRDD: 0.38
APVESMALF: 0.38
FTGWRDPGL: 0.38
APRRRDEEL: 0.38
AARHKHQVM: 0.38
AFHQLVQVI: 0.38
ASSEPHCAL: 0.38
GIVSSMHYK: 0.38
DELWRGLLA: 0.38
DEQEFFYSQ: 0.38

Further values, each from its own experiment
O=c1[nH]c2ccccc2n1C1CCN(Cc2ccc(-c3[nH]c4cc5ncnc5cc4nc3-c3ccccc3)cc2)CC1 — remaining activity (Leukocyte tyrosine kinase receptor (LTK, Homo sapiens, UniProt P29376); enzyme activity, inhibitor, radiometric; 0.5 µM): 95.6%

For quick reference, copied from above (block 4):
AARHKHQVM: 0.38
AFHQLVQVI: 0.38
